Results gathered from unrelated publications.
Protocols differ between the studies behind these lines. Values joined by “and” are separate records of one study, mostly repeats; a detail may differ. ± marks the error that the study gave.

`O=C(C[C@@H](C(F)F)n1ccc(F)n1)N1CCC(O)(Cn2cnc3c(cnn3-c3ccc(F)cc3)c2=O)CC1` gave a viability of 95.7% and 88.3% (CAPAN-1 parental; SRB; 0.009145 µM, 5 days).
`C[C@H](CCC(=O)N[C@@H](Cc1ccccc1)C(=O)O)[C@H]1CC[C@H]2[C@@H]3[C@H](O)C[C@@H]4C[C@H](O)CC[C@]4(C)[C@H]3C[C@H](O)[C@]12C` has a recovery of 98% (HEK293T; LC-MS; serum-free conditioned medium; 100 µM, overnight; relative to: non-conditioned medium).
For `FC(F)(F)c1cc(CO[C@H]2CCCN[C@H]2c2ccccc2)cc(C(F)(F)F)c1`, the CC50 was over 25 µM (PBMC).
For `COc1ccc(CCC(=O)c2c(O)cc(O[C@@H]3O[C@H](CO)[C@@H](O)[C@H](O)[C@H]3O[C@@H]3O[C@@H](C)[C@H](O)[C@@H](O)[C@H]3O)cc2O)cc1O`, the efflux ratio was 0.52 ± 0.2 (Caco-2 monolayers; 100 µg/mL, 2 h; relative to: Papp(BL-AP) over Papp(AP-BL)).
`Nc1ccn([C@H]2CC[C@@H](CO)O2)c(=O)n1` gave a CC50 of over 10 µM (PBMC).
`CC(=O)O[C@H]1C(=O)[C@@]2(C)[C@H]([C@H](OC(=O)c3ccccc3)[C@]3(O)C[C@H](OC(=O)[C@H](O)[C@@H](NC(=O)c4ccccc4)c4ccccc4)C(C)=C1C3(C)C)[C@]1(OC(C)=O)CO[C@@H]1C[C@@H]2O` has an IC50 of 0.151 ± 0.00263 µM (HEK293 transfected with MRP7; cell growth; 72 h).
For `CCCS(=O)(=O)Nc1ccc(F)c(C(=O)c2c[nH]c3ncc(Cl)cc23)c1F`, cell proliferation read “no inhibition” (C2C12; 100 µM).
`CC[C@H](C)[C@H](NC(=O)[C@H](CCCCN)NC(=O)[C@H](CCC(N)=O)NC(=O)[C@@H](NC(=O)[C@@H](NC(=O)[C@H](CCCNC(=N)N)NC(=O)[C@H](CCCCN)NC(=O)[C@H](Cc1ccccc1)NC(=O)CN)[C@@H](C)CC)C(C)C)C(=O)N[C@@H](CCCNC(=N)N)C(=O)N[C@@H](CC(=O)O)C(=O)N[C@@H](Cc1ccccc1)C(=O)N[C@@H](CC(C)C)C(=O)N[C@@H](CCCNC(=N)N)C(=O)N[C@@H](CC(N)=O)C(=O)N[C@@H](CC(C)C)C(=O)N[C@H](C(N)=O)C(C)C` has an HC50 of under 35 µM (human erythrocytes; hemolysis; 1 h, 37 °C; relative to: Triton X-100).
With `CCOC(=O)CCCCCCC/C=C\CCCCCCC(C)O[C@@H]1O[C@H](COC(C)=O)[C@@H](O)[C@H](O)[C@H]1O[C@@H]1O[C@H](COC(C)=O)[C@@H](O)[C@H](O)[C@H]1O` (stereo partly shown) the HC50 was about 125 µg/mL (sheep red blood cells; 1 h, 37 °C, 5% DMSO).
Under “time to onset of cytotoxicity”, `C[C@H]1[C@H](OC(=O)CCC(=O)O)O[C@@H]2O[C@@]3(C)CC[C@H]4[C@H](C)CC[C@@H]1[C@@]24OO3` is recorded as 48 h (ML-2 cells; CellTox Green; concentration not given).
`Cc1noc(C)c1Cn1cc(N2C(=O)CN(Cc3cccc(O)c3)C2=O)cn1` — result for “aberrant cells with gaps”: 2.5% (human blood lymphocytes; 200 µg/mL, 21 h).
`COc1ccc(-c2coc3cc(O)cc(O)c3c2=O)cc1` has an amount transported of 16.1 ± 1.4% (Caco-2 monolayers; 100 µg/mL, 2 h, apical to basolateral).
For `C[C@H](CCC(=O)N[C@@H](Cc1ccc(O)cc1)C(=O)O)[C@H]1CC[C@H]2[C@@H]3[C@H](O)C[C@@H]4C[C@H](O)CC[C@]4(C)[C@H]3C[C@H](O)[C@]12C`, the recovery was 99% (HEK293T; LC-MS; serum-free conditioned medium; 100 µM, overnight; relative to: non-conditioned medium).
`CC(C)OC(=O)[C@H](C)N[P@](=O)(OC[C@H]1O[C@@H](n2ccc(=O)[nH]c2=O)[C@](C)(F)[C@@H]1O)Oc1ccccc1`: “slope of fold mRNA vs concentration” -0.000913 (cryopreserved human hepatocytes, donor LLT; CYP3A4 induction, measured: CYP3A4 mRNA; concentration not given, 48 h).
`CC(C)=CCC[C@@]1(C)C(CC[C@H]2[C@]3(C)CC[C@H](O)C(C)(C)O[C@H]3CC[C@@]2(C)O)=C(C)CC[C@H]1O` gave an IC50 of over 50 µM (ABCG2-482-R2 transfected HEK293; cell viability, MTT; 72 h).
`COc1cc(/C=C/C=C2\SC(=S)NC2=O)cc(OC)c1O` gave a viability of 1.01 and 1.02 (HEK-293T; CellTiter-Glo; 1.25 µM, 24 h, unit not given; relative to: untreated).
For `CCCC(CCC)NC(=O)c1ccc2c(c1)OCO2`, “relative mitotic index” read 122% (CHO-WBL; 0.062 mg/mL, 3 h, with rat liver S9).
For `CC[C@H](C)[C@H](NC(=O)[C@H](CCCNC(=N)N)NC(=O)[C@H](CCC(N)=O)NC(=O)[C@@H](NC(=O)[C@@H](NC(=O)[C@H](CCCNC(=N)N)NC(=O)[C@H](CCCCN)NC(=O)[C@H](Cc1ccccc1)NC(=O)CN)[C@@H](C)CC)C(C)C)C(=O)N[C@@H](CCCCN)C(=O)N[C@@H](CC(=O)O)C(=O)N[C@@H](Cc1ccccc1)C(=O)N[C@@H](CC(C)C)C(=O)N[C@@H](CCCNC(=N)N)C(=O)N[C@@H](CC(N)=O)C(=O)N[C@@H](CC(C)C)C(=O)N[C@H](C(N)=O)C(C)C`, the HC50 was 160 µM (human erythrocytes; hemolysis; 1 h, 37 °C; relative to: Triton X-100).
The amount transported of `O=C(CCc1ccc(O)cc1)c1c(O)cc(O)cc1O` is reported as 9.7 ± 1.2% (Caco-2 monolayers; basolateral to apical transport; 100 µg/mL, 2 h).
`CC(C)C[C@H](NC(=O)CC[C@@H](C)[C@H]1CC[C@H]2[C@@H]3[C@H](O)C[C@@H]4C[C@H](O)CC[C@]4(C)[C@H]3CC[C@]12C)C(=O)O` gave a recovery of 101% (HEK293T; LC-MS; serum-free conditioned medium; 100 µM, overnight; relative to: non-conditioned medium).
`CC[C@]1(O)C[C@H]2CN(CCc3c([nH]c4ccccc34)[C@@](C(=O)OC)(c3cc4c(cc3OC)N(C=O)[C@H]3[C@@](O)(C(=O)OC)[C@H](OC(C)=O)[C@]5(CC)C=CCN6CC[C@]43[C@@H]65)C2)C1` has a neurite degeneration of 78.8% and 85.1% and 82.5% and 79.9% and 84.2% (rat DRG neurons (Sprague Dawley); 40 nM, 48 h).
The CC50 of `Cc1nn(-c2nc3c(F)cc(F)cc3s2)c(O)c1C(c1ccc(C(F)(F)F)cc1)c1c(C)nn(-c2nc3c(F)cc(F)cc3s2)c1O` is reported as 52.4 µM and 58.9 µM (RAW-ISG; cell viability; 24 h).
`COC[C@@H](CC(C)C)NC(=O)c1ccc(C)c(C)c1` has a mitotic index of 10.8 (primary human lymphocytes; 225 µg/mL, 4 h).
With `COc1ccc(-c2coc3cc(O)ccc3c2=O)cc1` the amount transported was 3.68 ± 0.08% (Caco-2 monolayers; apical to basolateral transport; 100 µg/mL, 2 h).
Under “structural aberrations per 100 cells”, `COc1cccc(-c2n[nH]c(SCc3ccccn3)n2)c1OC` is recorded as 1 (primary human lymphocytes; 0.063 mg/mL, 20 h).
`O=C(CS)NCCCCCC(=O)Nc1cccc2cccnc12` has a recovery of over 90% (Caco-2 monolayers; apical and basolateral sides; time not given; relative to: amount applied).
For `C[C@@H]1O[C@@H](O[C@H]2[C@H](Oc3cc(O)c4c(c3)O[C@H](c3ccc(O)cc3)CC4=O)O[C@H](CO)[C@@H](O)[C@@H]2O)[C@H](O)[C@H](O)[C@H]1O`, the amount transported was 6.35 ± 0.5% (Caco-2 monolayers; basolateral to apical transport; 100 µg/mL, 2 h).
With `COc1ccc(NC(=S)N/N=C/c2cccc3cc4ccccc4nc23)cc1` the viable cells was 77 ± 3.1% (HeLa; annexin V/PI; IC25, 48 h).
`CCOc1cc2ncc(C#N)c(Nc3ccc(OCc4ccccn4)c(Cl)c3)c2cc1NC(=O)/C=C/CN(C)C` gave an efflux ratio of 1.12 ± 1.15 (MDCK-II cells, parental; bidirectional transwell permeability; 1 µM, 1 h, pH 7.4).
The efflux ratio of `Cc1cc(C)c(CNC(=O)c2cc(Cl)c3c(c2C)O[C@@](C)([C@H]2CC[C@H](N(C)C)CC2)O3)c(=O)[nH]1` is reported as 1.18 (Caco-2; 3 µM, added: verapamil 100 µM).
`C[C@@H](OC(C)(C)C)[C@H](NC(=O)OCc1ccccc1)C(=O)N[C@@H](CC1CCCCC1)C(=O)NN(CCC(N)=O)C(=O)C(Cl)Cl` has a CC50 of 59.5 µM (HEK293T).
The amount transported of `COc1cc(C2Oc3cc([C@H]4Oc5cc(O)cc(O)c5C(=O)[C@@H]4O)ccc3OC2CO)ccc1O` (stereo partly shown) is reported as 15 ± 1% (Caco-2 monolayers; apical to basolateral transport; 100 µg/mL, 2 h).
`Cc1cc(Nc2ncnc3ccc(NC4=NC(C)(C)CO4)cc23)ccc1Oc1ccn2ncnc2c1` gave a Papp A-B of 7.45 ± 1.58 ×10⁻⁶ cm/s (MDCK-II cells, parental; bidirectional transwell permeability; 1 µM, 1 h, pH 7.4).
`C[C@H](Cn1cnc2c(N)ncnc21)OCP(=O)(O)O` — result for “slope of fold mRNA vs concentration”: -0.00225 (cryopreserved human hepatocytes, donor LLT; CYP3A4 induction, measured: CYP3A4 mRNA; concentration not given, 48 h).
With `C[C@@H]1O[C@@H](OC[C@H]2O[C@@H](Oc3c(-c4ccc(OCCO)c(OCCO)c4)oc4cc(OCCO)cc(O)c4c3=O)[C@H](O)[C@@H](O)[C@@H]2O)[C@H](O)[C@H](O)[C@H]1O` the amount transported was 4.87 ± 0.7% (Caco-2 monolayers; apical to basolateral transport; 100 µg/mL, 2 h).
`Cc1ccc(S(=O)(=O)c2nc(S(=O)(=O)NCc3ccccc3)sc2Cl)cc1` has a CC90 of over 100 µM (HFF; 7 days).
With `COc1ccc([C@@H]2CC(=O)c3c(O)cc(O)cc3O2)cc1O` the amount transported was 3.21 ± 0.3% (Caco-2 monolayers; apical to basolateral transport; 100 µg/mL, 2 h).
`Cc1ccc(S(=O)(=O)Oc2ccc(NC(=O)c3cnccn3)cc2)cc1` gave a viability of over 80% (HEK-293T; MTT; 100 µM, 24 h; relative to: untreated).
`COc1ccc(C(=O)CSc2[nH]c(=O)cc(C(F)(F)F)c2C#N)cc1` gave a CC50 of 56.8 µM (MRC-5 SV2 lung fibroblasts; cytotoxicity, resazurin; 3 days, 5% heat-inactivated FCS).
`CC(=O)OC[C@H]1O[C@@H]([S-])[C@H](OC(C)=O)[C@@H](OC(C)=O)[C@@H]1OC(C)=O.CCP(CC)CC.[Au+]` has an EC50 of 0.1 µM (L929; cytotoxicity; 5 days).
